Measured values of several laboratories.
± gives the spread as reported.
UniProt P28236, sequence (whole entry, looked up): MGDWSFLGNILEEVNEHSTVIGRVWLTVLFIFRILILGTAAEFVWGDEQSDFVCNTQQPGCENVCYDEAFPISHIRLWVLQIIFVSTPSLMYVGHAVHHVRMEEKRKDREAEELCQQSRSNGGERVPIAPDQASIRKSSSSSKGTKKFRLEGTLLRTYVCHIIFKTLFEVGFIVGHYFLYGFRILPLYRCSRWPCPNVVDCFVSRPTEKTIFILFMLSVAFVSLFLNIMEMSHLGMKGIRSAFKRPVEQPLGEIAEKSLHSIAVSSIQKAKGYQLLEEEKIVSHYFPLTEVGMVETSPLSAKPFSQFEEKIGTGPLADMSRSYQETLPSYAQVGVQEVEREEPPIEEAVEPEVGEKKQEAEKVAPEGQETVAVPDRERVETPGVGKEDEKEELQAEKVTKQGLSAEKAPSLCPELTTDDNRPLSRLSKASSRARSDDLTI
UniProt P63146, sequence (whole entry, looked up): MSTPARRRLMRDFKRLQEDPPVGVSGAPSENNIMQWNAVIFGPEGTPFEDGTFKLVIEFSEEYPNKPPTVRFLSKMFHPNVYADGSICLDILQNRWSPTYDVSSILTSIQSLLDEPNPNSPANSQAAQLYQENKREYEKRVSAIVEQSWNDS
UniProt P19111, sequence (whole entry, looked up): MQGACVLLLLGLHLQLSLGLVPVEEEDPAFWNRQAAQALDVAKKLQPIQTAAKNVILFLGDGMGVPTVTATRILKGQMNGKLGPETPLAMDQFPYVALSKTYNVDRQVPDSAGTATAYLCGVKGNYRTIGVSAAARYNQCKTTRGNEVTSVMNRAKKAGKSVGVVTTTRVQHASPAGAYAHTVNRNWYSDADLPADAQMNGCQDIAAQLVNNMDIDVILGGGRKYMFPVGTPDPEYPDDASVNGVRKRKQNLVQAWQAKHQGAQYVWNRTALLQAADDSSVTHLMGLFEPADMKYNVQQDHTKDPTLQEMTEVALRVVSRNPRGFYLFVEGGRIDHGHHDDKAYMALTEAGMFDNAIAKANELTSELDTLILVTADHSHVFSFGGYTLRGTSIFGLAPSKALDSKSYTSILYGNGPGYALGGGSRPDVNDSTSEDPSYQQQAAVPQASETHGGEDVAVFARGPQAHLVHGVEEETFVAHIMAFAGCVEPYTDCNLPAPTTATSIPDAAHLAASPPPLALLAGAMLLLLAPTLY
UniProt P48775, sequence (whole entry, looked up): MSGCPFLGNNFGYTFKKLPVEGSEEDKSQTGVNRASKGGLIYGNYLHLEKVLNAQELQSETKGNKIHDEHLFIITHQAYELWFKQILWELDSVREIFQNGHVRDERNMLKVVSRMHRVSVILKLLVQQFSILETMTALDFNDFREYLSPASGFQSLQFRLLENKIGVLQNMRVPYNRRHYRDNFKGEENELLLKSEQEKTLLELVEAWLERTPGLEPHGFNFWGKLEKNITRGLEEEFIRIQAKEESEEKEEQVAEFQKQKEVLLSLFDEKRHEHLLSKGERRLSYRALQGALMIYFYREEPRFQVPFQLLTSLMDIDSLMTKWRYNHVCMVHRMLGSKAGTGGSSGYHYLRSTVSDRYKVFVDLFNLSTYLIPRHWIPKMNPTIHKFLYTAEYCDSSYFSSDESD
UniProt P28845, sequence (whole entry, looked up): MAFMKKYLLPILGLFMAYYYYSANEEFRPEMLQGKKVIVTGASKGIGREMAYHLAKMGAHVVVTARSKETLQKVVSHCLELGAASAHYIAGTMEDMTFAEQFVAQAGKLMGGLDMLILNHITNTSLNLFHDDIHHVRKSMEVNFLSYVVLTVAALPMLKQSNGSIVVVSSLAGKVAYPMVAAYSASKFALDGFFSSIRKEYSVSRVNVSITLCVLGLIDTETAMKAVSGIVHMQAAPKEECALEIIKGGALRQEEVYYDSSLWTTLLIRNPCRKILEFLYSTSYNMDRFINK
UniProt P31424, sequence (whole entry, looked up): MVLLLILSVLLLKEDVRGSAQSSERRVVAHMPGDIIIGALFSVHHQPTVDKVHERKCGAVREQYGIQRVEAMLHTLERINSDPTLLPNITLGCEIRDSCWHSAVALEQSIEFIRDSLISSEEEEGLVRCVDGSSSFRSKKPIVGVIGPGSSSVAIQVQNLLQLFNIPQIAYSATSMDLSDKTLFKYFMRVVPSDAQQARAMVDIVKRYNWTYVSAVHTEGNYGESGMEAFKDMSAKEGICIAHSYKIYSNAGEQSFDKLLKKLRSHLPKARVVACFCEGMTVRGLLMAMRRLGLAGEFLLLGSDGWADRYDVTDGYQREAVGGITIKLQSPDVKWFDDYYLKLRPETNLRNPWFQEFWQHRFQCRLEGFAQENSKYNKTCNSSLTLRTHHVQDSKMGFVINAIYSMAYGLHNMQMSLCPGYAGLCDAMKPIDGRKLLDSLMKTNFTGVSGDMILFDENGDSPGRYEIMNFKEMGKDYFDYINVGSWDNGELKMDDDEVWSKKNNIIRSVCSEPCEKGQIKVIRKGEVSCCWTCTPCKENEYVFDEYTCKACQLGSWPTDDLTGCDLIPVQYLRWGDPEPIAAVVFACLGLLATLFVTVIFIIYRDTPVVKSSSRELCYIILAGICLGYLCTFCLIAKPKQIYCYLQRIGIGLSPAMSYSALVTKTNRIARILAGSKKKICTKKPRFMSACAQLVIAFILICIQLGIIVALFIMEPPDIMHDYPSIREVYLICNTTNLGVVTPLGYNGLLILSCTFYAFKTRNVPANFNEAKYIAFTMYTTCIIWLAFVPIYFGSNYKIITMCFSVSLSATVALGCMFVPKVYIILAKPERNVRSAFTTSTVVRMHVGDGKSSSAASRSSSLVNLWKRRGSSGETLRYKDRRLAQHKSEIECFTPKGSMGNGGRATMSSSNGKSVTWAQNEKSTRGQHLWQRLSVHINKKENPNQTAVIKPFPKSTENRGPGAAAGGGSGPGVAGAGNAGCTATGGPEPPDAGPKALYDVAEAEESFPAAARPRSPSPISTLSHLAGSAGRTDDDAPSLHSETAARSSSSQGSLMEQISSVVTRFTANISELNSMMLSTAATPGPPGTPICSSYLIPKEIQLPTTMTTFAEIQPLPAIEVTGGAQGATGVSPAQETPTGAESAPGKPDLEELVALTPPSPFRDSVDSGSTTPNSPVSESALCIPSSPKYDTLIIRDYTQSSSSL
UniProt P11362, sequence (whole entry, looked up): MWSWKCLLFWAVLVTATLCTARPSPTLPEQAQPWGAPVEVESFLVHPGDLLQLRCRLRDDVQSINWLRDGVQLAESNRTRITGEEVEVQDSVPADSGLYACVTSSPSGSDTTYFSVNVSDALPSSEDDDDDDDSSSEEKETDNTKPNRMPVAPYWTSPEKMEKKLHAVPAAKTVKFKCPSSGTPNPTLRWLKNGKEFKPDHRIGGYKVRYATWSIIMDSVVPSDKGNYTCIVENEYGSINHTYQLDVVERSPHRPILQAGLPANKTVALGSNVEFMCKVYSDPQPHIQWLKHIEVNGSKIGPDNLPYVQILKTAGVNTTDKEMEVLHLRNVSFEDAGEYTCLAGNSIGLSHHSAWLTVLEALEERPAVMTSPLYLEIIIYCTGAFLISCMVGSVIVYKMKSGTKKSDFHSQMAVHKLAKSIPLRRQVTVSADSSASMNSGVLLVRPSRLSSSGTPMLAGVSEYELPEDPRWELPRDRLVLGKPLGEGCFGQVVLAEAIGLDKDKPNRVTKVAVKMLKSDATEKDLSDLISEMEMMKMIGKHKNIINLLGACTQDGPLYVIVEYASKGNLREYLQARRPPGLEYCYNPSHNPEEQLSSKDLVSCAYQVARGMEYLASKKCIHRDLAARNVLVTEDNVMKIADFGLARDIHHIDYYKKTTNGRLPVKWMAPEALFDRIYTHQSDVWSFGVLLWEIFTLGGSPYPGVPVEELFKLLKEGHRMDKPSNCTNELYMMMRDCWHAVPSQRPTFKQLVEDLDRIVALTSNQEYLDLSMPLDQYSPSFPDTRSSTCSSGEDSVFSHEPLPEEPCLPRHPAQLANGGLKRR
UniProt O35433, sequence (whole entry, looked up): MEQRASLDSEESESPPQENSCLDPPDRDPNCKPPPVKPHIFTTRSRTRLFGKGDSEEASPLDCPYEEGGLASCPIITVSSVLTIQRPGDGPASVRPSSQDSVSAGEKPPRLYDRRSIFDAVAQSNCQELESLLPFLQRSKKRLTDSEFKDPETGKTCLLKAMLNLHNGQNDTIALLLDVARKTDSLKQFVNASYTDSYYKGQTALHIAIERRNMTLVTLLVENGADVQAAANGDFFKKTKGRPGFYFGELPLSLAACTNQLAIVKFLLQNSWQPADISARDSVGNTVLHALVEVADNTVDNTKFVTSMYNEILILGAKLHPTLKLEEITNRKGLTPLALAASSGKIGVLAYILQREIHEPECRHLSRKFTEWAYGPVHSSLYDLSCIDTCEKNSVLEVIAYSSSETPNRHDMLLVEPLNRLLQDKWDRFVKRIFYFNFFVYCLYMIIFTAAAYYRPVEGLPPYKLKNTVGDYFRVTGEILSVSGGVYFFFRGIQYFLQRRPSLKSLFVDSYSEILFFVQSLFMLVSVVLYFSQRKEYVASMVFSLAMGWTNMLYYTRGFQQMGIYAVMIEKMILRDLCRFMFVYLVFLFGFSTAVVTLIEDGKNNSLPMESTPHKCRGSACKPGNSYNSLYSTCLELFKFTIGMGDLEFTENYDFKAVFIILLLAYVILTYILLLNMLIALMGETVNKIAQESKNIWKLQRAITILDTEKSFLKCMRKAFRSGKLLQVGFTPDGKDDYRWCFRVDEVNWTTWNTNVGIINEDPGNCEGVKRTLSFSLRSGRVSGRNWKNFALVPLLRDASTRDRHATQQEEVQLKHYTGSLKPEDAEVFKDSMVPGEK
UniProt P62937, sequence (whole entry, looked up): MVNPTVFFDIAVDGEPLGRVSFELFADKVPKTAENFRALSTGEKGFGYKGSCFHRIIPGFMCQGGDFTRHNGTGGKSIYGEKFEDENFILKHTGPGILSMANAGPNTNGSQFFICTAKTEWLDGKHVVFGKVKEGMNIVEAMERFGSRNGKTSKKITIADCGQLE

Compound	target	assay	test system	setting	IC50
N#Cc1cnc(Nc2nc3ccccc3o2)nc1-c1ccccc1F	Grm5 (Rattus norvegicus, UniProt P31424)	calcium signal, antagonist			258 nM
O=C(CCCCCCNC(=O)c1cnc(N(c2ccccc2)c2ccccc2)nc1)NO	HDAC (Lucilia cuprina egg nuclear extract)	enzyme activity, inhibitor, fluorometric			2000 nM
Cc1cc2c(NC(=O)N[C@@H]3CC(C)(C)Oc4cc(C(F)(F)F)ccc43)cccc2cn1	Trpv1 (Rattus norvegicus, UniProt O35433)	calcium signal, antagonist, fluorescence			20.9 nM
CCCN(CC(=O)N(CCC)CC(=O)N(CCC)CC(=O)N(CCC)CC(=O)N(CCC)CC(=O)N(CCC)CC(=O)N(CC(N)=O)Cc1cn(CCCNC(=O)CCCOc2cccc(-c3nc4ccc(-c5nc6ccc(N7CCN(C)CC7)cc6[nH]5)cc4[nH]3)c2)nn1)C(=O)CNCc1cn(CCCNC(=O)CCCOc2cccc(-c3nc4ccc(-c5nc6ccc(N7CCN(C)CC7)cc6[nH]5)cc4[nH]3)c2)nn1	MBNL1–r(CUG)109 complex	MBNL1 displacement		with: bulk yeast tRNA competitor	> 30000 nM
COC(=O)c1ccc(C[S+]([O-])CC(=O)C23CC4CC(CC(C4)C2)C3)o1 (stereo not shown)	HSD11B1 (Homo sapiens, UniProt P28845)	enzyme activity in cells, inhibitor			102 nM
O=C(O)[C@@H]1Cc2c([nH]c3ccccc23)[C@@H](c2ccc(Cl)cc2Br)N1	MEP cytidylyltransferase IspD (Plasmodium falciparum, UniProt Q8I273)	enzyme activity, inhibitor, fluorimetric pyrophosphate		60 nM enzyme	31 ± 4 nM
NCc1ccc(NC(=O)c2ccc3ccccc3c2O)cc1	TMPRSS2 (Homo sapiens, UniProt O15393)	enzyme activity, inhibitor, fluorescence		with preincubation	12500 nM
CC(=O)OCC1C=C(C2(C)CCCCC2)CCC1COC(C)=O (single isomer, unassigned; (+))	PPIA (Homo sapiens, UniProt P62937)	enzyme activity, inhibitor			> 10000 nM
O=C1NC2=C(C(=O)N(c3ccc(Cl)cc3)C2)C(c2ccc(O)cc2)N1 (stereo not shown)	ALPI (Bos taurus, UniProt P19111)	enzyme activity, inhibitor, absorbance		pH 9.5	6560 nM
NC(c1ccccc1)(c1ccccc1)c1ccccc1	Gap junction alpha-8 protein (Gja8, Mus musculus, UniProt P28236)	gap junction current, inhibitor, dual whole-cell voltage clamp	transfected mouse N2a cell pairs		1500 nM
COc1ccc(-c2oc3ccccc3c(=O)c2OCc2ccccc2)cc1	β-glucosidase	enzyme activity, inhibitor			170 ± 50 nM
O=C(O)C(CO)NCc1cc(Cl)c(OCc2cccc(-c3ccccc3)c2Br)cc1OCc1cccnc1 (stereo not shown)	CTLA4/CD80 (Homo sapiens, UniProt P16410+P33681)	PD-1/PD-L1 interaction, inhibitor, ELISA			> 10000 nM
C#CCCCC(=O)NCCCC[C@H](NC(=O)[C@@H](NC(=O)[C@H](CO)NC(=O)[C@@H]1CCCN1C(=O)[C@H](CO)NC(=O)[C@H](Cc1ccc(O)cc1)NC(=O)[C@H](CCSC)NC(=O)[C@H](C)NC(=O)[C@H](CCSC)NC(=O)[C@H](CO)NC(=O)[C@@H]1CCCN1C(=O)[C@H](Cc1ccc(O)cc1)NC(=O)[C@@H](N)CC(=O)O)C(C)C)C(=O)O	Ephrin type-A receptor 2, extracellular domain (EPHA2, Homo sapiens, UniProt P29317)	ephrin-A5 binding, inhibitor, ELISA			> 200000 nM
COc1cc2nccc(Oc3ccc(NC(=S)NC4CCC(F)(F)CC4)c(Cl)c3)c2cc1C(N)=O	FGFR1 (Homo sapiens, UniProt P11362)				7620 nM
O=C(O)c1ccccc1-c1c2ccc(=O)cc-2oc2cc(O)ccc12	Ubiquitin-conjugating enzyme E2 B (Homo sapiens, UniProt P63146)	enzyme activity, inhibitor			> 100000 nM
COC1=Cc2c(cc(O)c3cc(C)c(OC)cc23)C(C)(C)C1=O	TDO2 (Homo sapiens, UniProt P48775)	kynurenine production	HEK293 expressing human TDO2		24700 nM

Some of these lines once more:
Compound	target	assay	test system	setting	IC50
COc1ccc(-c2oc3ccccc3c(=O)c2OCc2ccccc2)cc1	β-glucosidase	enzyme activity, inhibitor			170 ± 50 nM
CC(=O)OCC1C=C(C2(C)CCCCC2)CCC1COC(C)=O (single isomer, unassigned; (+))	PPIA (Homo sapiens, UniProt P62937)	enzyme activity, inhibitor			> 10000 nM
